Results from different studies.
Numbered parts are unrelated; each lists some results of a single study. Values joined by “and” are separate records of one study, mostly repeats; a detail may differ.

Study 1
Target: Interferon regulatory factor 7, full length, phosphomimetic (IRF7, Homo sapiens, UniProt Q92985, residues 1-503, S101K/S471D/S472D/S475D/S476D/S477D/S483D/S484D/S487D)
UniProt Q92985, sequence (whole entry, unmodified, looked up): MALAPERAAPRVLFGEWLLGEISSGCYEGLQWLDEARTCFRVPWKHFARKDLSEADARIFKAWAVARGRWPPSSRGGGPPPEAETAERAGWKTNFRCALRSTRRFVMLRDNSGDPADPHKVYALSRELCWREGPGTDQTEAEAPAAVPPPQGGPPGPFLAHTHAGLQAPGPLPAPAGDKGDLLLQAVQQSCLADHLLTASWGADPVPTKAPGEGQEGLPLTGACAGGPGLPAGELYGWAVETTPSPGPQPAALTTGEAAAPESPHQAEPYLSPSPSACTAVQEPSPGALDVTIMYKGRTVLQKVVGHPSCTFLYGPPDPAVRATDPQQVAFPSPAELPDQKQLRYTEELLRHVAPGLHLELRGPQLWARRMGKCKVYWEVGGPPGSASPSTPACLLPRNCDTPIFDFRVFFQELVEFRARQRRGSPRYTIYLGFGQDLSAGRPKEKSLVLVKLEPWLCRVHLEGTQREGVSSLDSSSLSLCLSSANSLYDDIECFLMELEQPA
Technique: protein-binding microarray
Form: double-stranded DNA, one strand shown
Matrix: in vitro
Concentration: 250 nM
Notes: 60-bp whole probe
With: salmon DNA 0.4 mg/ml
Relative to: random background probes
Reading: higher = stronger binding
Endpoint: log fluorescence
Constant ends, left off below: GCCTAGCAC … GTCTTGATTCGCTTGACGCTGCTG
GACGGACTGGACTTTCTGGACGTGCTA: -0.956 z-score
GGGCCTAGCCATTATGAGTCTGTGCTA: -0.378 z-score
TCACACTCCAGTCTGGGACTGTGCTAG: -0.161 z-score
TTCGGTATCCTTTTCCTTTAGTGCTAG: 1.9 z-score
CTCTGCTTCTGTATGGGCATGTGCTAG: 0.154 z-score
GACTAACTGGGGACTGGAGACGTGCTA: -0.12 z-score
TTAGGACTGCTACTGCTTCAGTGCTAG: -0.528 z-score
TTAGGTATCCTACTCCTTTAGTGCTAG: 0.0926 z-score

Study 2
Target: POU, POU domain (Salpingoeca helianthica)
Technique: Spec-seq
Form: double-stranded DNA, one strand shown
Matrix: in vitro
Concentration: not given
Notes: whole probe, mean of replicates
Relative to: not given
Reading: lower = stronger binding
Endpoint: relative binding energy
Constant ends, left off below: GAGTCGTCTCGTCAGCAC … CCGTAGAGCACTCAGGTC
Residues (chain): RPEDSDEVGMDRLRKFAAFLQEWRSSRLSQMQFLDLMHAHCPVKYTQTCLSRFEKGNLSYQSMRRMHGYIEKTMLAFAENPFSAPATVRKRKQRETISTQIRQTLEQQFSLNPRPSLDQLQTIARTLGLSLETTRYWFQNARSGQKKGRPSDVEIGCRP
ATCCGGAT: 1.36 ln ratio
ATAATCAT: -0.0241 ln ratio
CATATAAT: 0.282 ln ratio
ATGATTAT: -0.257 ln ratio
ATGCTGGA: 1.43 ln ratio
ATGCTGCG: 1.22 ln ratio
ATCGATAT: 0.823 ln ratio
GGTGTAAT: 0.76 ln ratio

Study 3
Target: Serine/threonine-protein kinase MARK1 (MARK1, Homo sapiens, UniProt Q9P0L2)
UniProt Q9P0L2, sequence (whole entry, looked up): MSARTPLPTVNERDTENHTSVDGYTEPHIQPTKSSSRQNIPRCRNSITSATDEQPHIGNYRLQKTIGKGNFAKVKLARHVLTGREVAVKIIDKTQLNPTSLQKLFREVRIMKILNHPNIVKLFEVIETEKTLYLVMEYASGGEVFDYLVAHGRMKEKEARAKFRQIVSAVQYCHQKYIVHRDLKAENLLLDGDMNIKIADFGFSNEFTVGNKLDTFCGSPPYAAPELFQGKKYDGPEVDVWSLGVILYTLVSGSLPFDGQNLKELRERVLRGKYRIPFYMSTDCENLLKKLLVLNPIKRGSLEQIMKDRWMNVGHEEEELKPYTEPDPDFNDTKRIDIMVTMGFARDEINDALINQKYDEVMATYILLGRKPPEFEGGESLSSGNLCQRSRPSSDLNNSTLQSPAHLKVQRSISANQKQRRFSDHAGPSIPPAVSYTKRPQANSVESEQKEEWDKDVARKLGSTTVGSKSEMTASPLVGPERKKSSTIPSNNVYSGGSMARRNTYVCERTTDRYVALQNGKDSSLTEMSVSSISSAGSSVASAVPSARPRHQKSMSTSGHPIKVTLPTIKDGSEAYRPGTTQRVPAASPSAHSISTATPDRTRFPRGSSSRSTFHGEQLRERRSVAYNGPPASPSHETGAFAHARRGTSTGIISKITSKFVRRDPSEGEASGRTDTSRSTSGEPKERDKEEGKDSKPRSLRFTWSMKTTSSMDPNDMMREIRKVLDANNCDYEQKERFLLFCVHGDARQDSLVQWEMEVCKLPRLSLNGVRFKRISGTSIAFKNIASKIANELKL
Effect on: enzyme activity
Action: inhibitor
Concentration: 0.5 µM
Relative to: control
Endpoint: remaining activity
N#CC(C#N)=C(N)/C(C#N)=C/c1ccc(O)cc1: 111%
O=C1NC(=O)C(c2cn(CCCn3ccnc3)c3ccccc23)=C1Nc1ccccc1: 93.6%
Cn1c2ccccc2c2c3c(c4c5ccccc5n(CCC#N)c4c21)CNC3=O: 20.8%
O=C1NC(=O)C(c2cn(CCCO)c3ncccc23)=C1c1cnccn1: 95%
Cc1ccc(Nc2nccc(N(C)c3ccc4c(C)n(C)nc4c3)n2)cc1S(N)(=O)=O: 99.9%
O=C(CCCc1ccc(-c2ccccc2F)cc1)Nc1ccc(O)cc1: 96.7%
COc1ccc(OC)c2c(=S)c3ccccc3[nH]c12: 88.3%
Nc1[nH]nc2nc3ccccc3nc12: 95.7%
COc1ccc(C(=O)Nc2sc3c(c2C(N)=O)CCCC3)cc1OC: 97.9%
O=S(=O)(c1cccc2cnccc12)N1CCCNCC1: 98.6%
CN(C)c1ccc(C=C2C(=O)Nc3ccccc32)cc1: 97.3%
COc1ccc(CNC(=O)Nc2ncc([N+](=O)[O-])s2)cc1: 106%
Cc1cccc(-c2[nH]c(C(C)(C)C)nc2-c2ccc3c(c2)OCO3)n1: 85.1%
NCCNc1ncc(C(N)=O)c(Nc2cccc(C(F)(F)F)c2)n1: 86.4%

Further values, each from its own experiment
COc1ccc(-c2c(Nc3ccccn3)[nH]c3c(C4=CCCCC4)c(-c4ccccc4)nn3c2=O)cc1  AUC(all) (LC-MS/MS; human, plasma; oral, 50 mg once daily): 34900 ng·h/mL and 33000 ng·h/mL

For quick reference, copied from above (study 3):
Cn1c2ccccc2c2c3c(c4c5ccccc5n(CCC#N)c4c21)CNC3=O: 20.8%
COc1ccc(OC)c2c(=S)c3ccccc3[nH]c12: 88.3%
NCCNc1ncc(C(N)=O)c(Nc2cccc(C(F)(F)F)c2)n1: 86.4%
